Published values from different studies.
Every numbered part comes from another study and shows a few of its results, in no order. Substitutions count along the parent as printed.

Set 1 — target: CREBZF, bZIP domain (human); technique: DHFR protein complementation; sample: yeast; baseline: wild-type JUN-FOS pair; reading: higher = stronger binding
Setting: single substitutions, most at no-binding floor
Starting sequence: JUN, bZIP domain (human); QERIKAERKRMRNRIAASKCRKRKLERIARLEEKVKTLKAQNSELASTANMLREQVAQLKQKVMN; partner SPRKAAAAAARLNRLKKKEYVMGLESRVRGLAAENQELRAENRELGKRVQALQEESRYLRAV
Change	binding fitness
N42F	-1.54 natural log
A40L	-1.5 natural log
R53P	-1.52 natural log
K36P	-1.52 natural log
Q41R	-1.45 natural log
V35C	-1.49 natural log
Q58S	-1.41 natural log
R30G	-1.44 natural log
I28G	-1.5 natural log
Q41K	-1.58 natural log
E32D	-1.58 natural log
L52W	-1.55 natural log
K34P	-1.47 natural log
V56R	-1.36 natural log
E33S	-1.32 natural log
M51N	-1.43 natural log
M51V	-1.44 natural log
N42L	-1.49 natural log
V35G	-1.5 natural log
L31V	-1.41 natural log
E32L	-1.52 natural log
A49W	-1.41 natural log
K34E	-1.52 natural log

Set 2 — target: CRIPT, C-terminal peptide; technique: DHFR complementation, deep sequencing; sample: yeast; baseline: wild type; reading: higher = weaker binding
Setting: single substitutions, model-inferred values
Starting sequence: ERBIN, PDZ domain 1 (human); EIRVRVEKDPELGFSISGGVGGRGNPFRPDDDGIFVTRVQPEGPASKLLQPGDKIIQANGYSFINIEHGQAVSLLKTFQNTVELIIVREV; partner TKNYKQTSV
Change	binding free energy change [kcal/mol]
F14N	1.24
N80H	0.046
E83S	0.133
R38L	0.0365
G19Y	1.69
P29L	0.133
D9S	-0.168
D9F	0.608
F78H	0.339
E89M	-0.027
S62Y	0.0545
N65S	0.0199
F63V	0.166
E7R	-0.221
E89V	-0.0104
P41K	0.252
G22W	0.684
A58T	0.295
F35P	1.13
G18N	1.48
A71L	1.53
S17E	1.31
I2R	0.0613
L75P	0.618
E11G	0.537

Set 3 — technique: RNA Bind-n-Seq; molecule type: RNA; sample: in vitro; concentration: 365 nM; baseline: no-protein control; reading: higher = stronger binding
Target: RNA binding protein fox-1 homolog 2, RRM domain, GST-SBP tag (RBFOX2, Homo sapiens, UniProt O43251-10, residues 100-194)
Setting: natural RNA segment, single round, ends assumed
All sequences stand within: GGGAGUUCUACAGUCCGACGAUC … UGGAAUUCUCGGGUGCCAA
Target sequence (chain): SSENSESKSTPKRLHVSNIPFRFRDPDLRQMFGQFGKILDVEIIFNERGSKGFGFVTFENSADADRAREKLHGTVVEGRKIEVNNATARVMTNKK
Strand	RBNS enrichment (R)
GCAAUAGGACAAUUUCCAAUUUAAUUUAGAUCCUCUAAUCUUUCUACAUGGACAAGCUGUUUUCUUUUCUAGGUUACUGAUAACCCCUACAAUUUUCGACUUAACUUCAA	0.495
CGGAUGCUGCUCUUUUCUUGCUUACCAACCAACUCCAUUUGCUUGUGAUGGCCCCAUUUUUACAGUUUUCCACAUGCUGGGGAGCCUAGGCCAAGCUGGUCACAAGUGGU	0.645
UUUUAGUCCAUUUUGUUUUCAAUACGAUUUAAUAUCGAUCAGAGUAAUUCUUUUGUACAUUGAAAUGAGGGGCUUGGUUUAAAAAAAGACCUUUCCCUCUCCCUGCCCCU	0.364
GUCCAAGGCCAAGAACCUCAUCAAGGAGGCAGGCAACGAGUUUGUACAGCACAAUGCCAGACAGUUAUGCCGCGUGUAUCCCAGUGGUCUGAGGACAGAUUCAUCCAACU	0.494
GUCUAUGAUUUUCUCUCCAGACUCAUUGAAAAAGCUUCAGUCAACAGAAAGCCUCAGCUACCUCAGCAUUUUGUUGAUGCUUAUUUAGAUGAGAUGGAUCAAGGUAAAAA	0.341
CGGAUGCCCCCACCACCUGGACAGAGGCCACACUGACUGCCCACCCAGCUGUGGCGGGAGGUGCAGAGCAGAGGGCUUUAGGGAGCAGUGACUGCGGUCACCCCUUUAGU	0.274
GUUUUGUAGAAGAAAAAUUAUUGUGUUUAGGGGUAUAAUAUUAUAUGUUUUCAUAUUAUGAAAUGAAUUUGUAUUUAAACAAAAAUUUAAAUUUUGGAAUCCUCUAAACA	1.11
AGUGCUCCUGGAAACUUAGCUUUUGAUGUCUCCAAGUAGUCCACCUUCAUUUAACUCUUUGAAACUGUAUCAUCUUUGCCAAGUAAGAGUGGUGGCCUAUUUCAGCUGCU	0.417
CAACCCCUCACUGGUCUUGCAUGAGCUAGAGGGUUGGGAAGCUGGGCUCAUUCCACGCAUUGCCUGCAGCCAUCUGCACACUGCACCUGCUGGCAGCUCCUCCCCAGCAA	17.6
UCUUUGACUAGAAUCACAACCAUCCCAGAGCAUGUAUGACAAGCUUGUGUUUUGGCAGCAUUUUAAGGCAUGGUGGUCCCUCAGGCUUUGAAAACGCCUCUUGCCUAUGU	1.72
GUGUCAUACUGGGGCCAGCGAGAUGGCUCAGUAGGUAAAGGUGCUUGAUGCUAAGCCCGGCAGCCUGUGUUUCAUCUACAGGAUGCACAACAUAAAAGAAAAGAUCUGAU	0.4
UGGCAGUGAAAAAUAUGUUGAGUGUUCAUUUUAGUGACUGUAAUUAAUAUCUUGCUGGAUUAAUGUUUUGUACAAUUACUAAAUUGUAUACAUUUUGUUAUAGAAUACUU	0.454

Set 4 — technique: protein binding microarray; molecule type: double-stranded DNA, one strand shown; sample: in vitro; concentration: not given; baseline: not given; reading: higher = stronger binding
Target: Histone acetyltransferase KAT6A, both winged helices, GST fusion (KAT6A, Homo sapiens, UniProt Q92794, residues 1-181)
Setting: 8-mer, flanks averaged, mean of 2 arrays, mostly near background
Target sequence (chain): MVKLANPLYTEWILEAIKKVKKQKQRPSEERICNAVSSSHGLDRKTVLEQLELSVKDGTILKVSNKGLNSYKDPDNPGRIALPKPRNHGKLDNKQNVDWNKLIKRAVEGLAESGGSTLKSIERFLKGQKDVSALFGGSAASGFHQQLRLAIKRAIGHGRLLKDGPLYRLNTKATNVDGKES
Strand	E-score
ACCGTGTG	0.0505
ATTTTATA	0.0558
CGATGCAA	-0.0415
TACCCACA	-0.154
CACGACAC	-0.024
ATACGCCA	0.0464
CAACGGTG	0.153
AGGCTACC	-0.131
ATTTCATG	-0.133
ACCCAATA	-0.103
ATTTCCCA	-0.233
ACCGCTTC	0.131
AATGGGAG	-0.202
ATGATGTC	-0.00807
ATCGTTGG	-0.196
GGTTCCGA	0.12
ATCTGTCC	-0.0382
AGACGACT	-0.0567
AAGGATTA	-0.172
ACATATCC	0.0653
GGGAGGCA	0.00802
AATACTGA	-0.0461
GATTAATA	-0.0394
ATTCTGAC	0.0873
CTTGGAAC	-0.0517

Set 5 — technique: DHFR PCA, deep sequencing; sample: yeast; with: (+)-ABA 710 µM; baseline: wild-type fitted maximum; reading: higher = stronger binding
Target: ABI1, truncated, D143A, DHFR fusion (Arabidopsis thaliana)
Setting: methotrexate growth selection, single substitutions
Starting sequence: PYL1, truncated, DHFR fusion (Arabidopsis thaliana); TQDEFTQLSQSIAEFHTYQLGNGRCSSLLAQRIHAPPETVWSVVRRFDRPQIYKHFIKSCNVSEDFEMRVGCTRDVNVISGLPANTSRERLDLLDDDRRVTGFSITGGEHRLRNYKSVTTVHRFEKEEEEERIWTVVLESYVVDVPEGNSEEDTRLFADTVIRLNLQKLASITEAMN
Change	relative binding score [%]
W134T	112
R123T	97.7
I162G	33.2
V142C	102
L156P	-6.58
R132W	91.9
G81K	67.1
D97I	113
W134S	114
I162F	-11.8
V121F	10.2
S59H	93.6
C25P	55
R46D	88.2
S171E	108

Set 6 — target: CCNE2, cyclin fold, Cln2 fusion (human); technique: yeast growth competition, sequencing; sample: yeast; setting: strong parent motif; baseline: not given; reading: higher = stronger binding
Starting sequence: PKN2 docking peptide (human); VSAVRKLDFSDTM; partner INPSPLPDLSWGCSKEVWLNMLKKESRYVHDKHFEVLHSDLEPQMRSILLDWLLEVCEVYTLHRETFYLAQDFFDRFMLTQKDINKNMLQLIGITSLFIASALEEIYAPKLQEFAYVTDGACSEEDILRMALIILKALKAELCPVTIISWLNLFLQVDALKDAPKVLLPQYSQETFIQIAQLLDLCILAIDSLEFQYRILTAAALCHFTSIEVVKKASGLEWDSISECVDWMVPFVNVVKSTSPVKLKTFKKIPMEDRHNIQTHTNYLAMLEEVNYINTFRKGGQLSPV
Change	normalised enrichment score
VSAVRKLDFSDIM [T12I]	5.11
VSAVRKLDFCDTM [S10C]	3.93
VSAVRKLDHSDTM [F9H]	0.353
VSAVRKTDFSDTM [L7T]	0.178
VSAVRHLDFSDTM [K6H]	1.74
VSNVRKLDFSDTM [A3N]	0.24
VSAVRKRDFSDTM [L7R]	0.289
VDAVRKLDFSDTM [S2D]	2.8
VSAVRKLAFSDTM [D8A]	2.02
VRAVRKLDFSDTM [S2R]	4.77
VSAVRTLDFSDTM [K6T]	2.75
VSAVRKLDFSATM [D11A]	5.22
VSAVRKLDFSYTM [D11Y]	5.04
VSAVRKLDFSRTM [D11R]	5.21
VSAVRKLNFSDTM [D8N]	4.52
VSASRKLDFSDTM [V4S]	1.38
VNAVRKLDFSDTM [S2N]	4.67
VSAVRKLDYSDTM [F9Y]	0.631
VSAVRYLDFSDTM [K6Y]	1.54
VSAVSKLDFSDTM [R5S]	-0.0828
VSAVRKLDWSDTM [F9W]	2
VSAARKLDFSDTM [V4A]	2.7

Some of these lines once more (set 6):
Change	normalised enrichment score
VSAVRKLAFSDTM [D8A]	2.02
VSAVRKTDFSDTM [L7T]	0.178
VSAVRYLDFSDTM [K6Y]	1.54
VSAVRKRDFSDTM [L7R]	0.289
VSAVRHLDFSDTM [K6H]	1.74
VDAVRKLDFSDTM [S2D]	2.8
VSAVRKLDYSDTM [F9Y]	0.631
VSAVSKLDFSDTM [R5S]	-0.0828
VSAVRTLDFSDTM [K6T]	2.75
VSAVRKLDFSDIM [T12I]	5.11
VSAVRKLDFSATM [D11A]	5.22
VSAVRKLNFSDTM [D8N]	4.52
VNAVRKLDFSDTM [S2N]	4.67
VSAARKLDFSDTM [V4A]	2.7
VRAVRKLDFSDTM [S2R]	4.77
VSAVRKLDFSYTM [D11Y]	5.04
VSAVRKLDWSDTM [F9W]	2
VSAVRKLDHSDTM [F9H]	0.353
VSAVRKLDFSRTM [D11R]	5.21
